Results gathered from unrelated publications.
Each numbered part is a random draw from the data of one study; scales do not carry over between parts.

Series 1
Target: Sal-like protein 4, full length isoform B (SALL4, Homo sapiens, UniProt Q9UJQ4-2, residues 1-616)
Method: universal PBM
Form: double-stranded DNA, one strand shown
Sample: in vitro
Tested at: not given
Setting: 8-mer, flanks averaged, mean of replicates
Direction: higher = stronger binding
Strand	E-score
AGAGACTC	-0.175
CAAAACTA	0.225
ACGTGTCT	0.0813
GAGTCGAA	-0.101
GCAGAGCC	-0.35

Series 2
Target: Prothrombin, mature alpha-thrombin (F2, Homo sapiens, UniProt P00734)
Method: aptamer microarray, sandwich
Form: DNA with 2'F-ANA
Sample: in vitro
Tested at: 200 nM
Setting: whole 15-mer aptamer, many near background
With: Cy3 exosite-II aptamer, 400 nM
Direction: higher = stronger binding
Strand	mean fluorescence intensity
GGTTGGTGTGGTTGG (2'F-ANA at 1 4 11)	99.9 a.u.
GGTTGGTGTGGTTGG (2'F-ANA at 2 7 8 9 11 13 14)	139 a.u.
GGTTGGTGTGGTTGG (2'F-ANA at 2 4 6 9 10 11 12 13 14 15)	60 a.u.
GGTTGGTGTGGTTGG (2'F-ANA at 4 10 11 12 13 14)	170 a.u.

Series 3
Target: Histone acetyltransferase KAT6A, winged helix 1, GST fusion (KAT6A, Homo sapiens, UniProt Q92794, residues 1-85)
Method: protein binding microarray
Form: double-stranded DNA, one strand shown
Sample: in vitro
Tested at: not given
Setting: 8-mer, flanks averaged, mean of 2 arrays, mostly near background
Reference: not given
Direction: higher = stronger binding
Residues (chain): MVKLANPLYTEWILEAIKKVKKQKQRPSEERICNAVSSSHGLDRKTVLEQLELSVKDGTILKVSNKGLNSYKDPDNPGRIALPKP
Strand	E-score
TAGCCGCA	0.264
ACAACTCG	-0.149
CCATAGAA	-0.113
CCTGCAGA	-0.136

Other studies, line by line
Substance	target	test	system	setting	scale	measurement	result
PhoQ, residues 284 288 289 292 302 303 NLSRDF	PhoP, residues 12 14 15 18 19 IFFTR (Escherichia coli, UniProt P23836)	Sort-seq, measured: YFP reporter	E. coli	PhoQ-PhoP variant library, with: 10 µM Mg2+	reference: high Mg2+ state, higher = stronger signaling	fold induction	1.2

Repeated from above (series 2):
Strand	mean fluorescence intensity
GGTTGGTGTGGTTGG (2'F-ANA at 2 7 8 9 11 13 14)	139 a.u.
GGTTGGTGTGGTTGG (2'F-ANA at 2 4 6 9 10 11 12 13 14 15)	60 a.u.
